Results of several laboratories.
Each numbered part is a random draw from the data of one study; scales do not carry over between parts. “And” joins repeats or separate records; there may be more than shown.
Sequence of UniProt Q96NX5 (whole entry, looked up): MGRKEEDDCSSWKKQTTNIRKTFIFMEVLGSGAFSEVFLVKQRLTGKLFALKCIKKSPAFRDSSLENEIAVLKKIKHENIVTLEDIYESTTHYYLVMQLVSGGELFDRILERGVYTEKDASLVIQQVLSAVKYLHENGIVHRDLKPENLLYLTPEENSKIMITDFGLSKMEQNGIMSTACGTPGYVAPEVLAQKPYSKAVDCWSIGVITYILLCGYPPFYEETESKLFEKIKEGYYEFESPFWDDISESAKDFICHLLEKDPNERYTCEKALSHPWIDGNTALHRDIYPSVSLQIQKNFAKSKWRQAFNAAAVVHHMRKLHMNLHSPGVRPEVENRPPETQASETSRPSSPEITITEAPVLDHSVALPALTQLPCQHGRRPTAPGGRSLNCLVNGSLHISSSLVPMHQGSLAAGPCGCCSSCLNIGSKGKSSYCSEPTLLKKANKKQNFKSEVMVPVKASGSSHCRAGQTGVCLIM
Sequence of UniProt O75116 (whole entry, looked up): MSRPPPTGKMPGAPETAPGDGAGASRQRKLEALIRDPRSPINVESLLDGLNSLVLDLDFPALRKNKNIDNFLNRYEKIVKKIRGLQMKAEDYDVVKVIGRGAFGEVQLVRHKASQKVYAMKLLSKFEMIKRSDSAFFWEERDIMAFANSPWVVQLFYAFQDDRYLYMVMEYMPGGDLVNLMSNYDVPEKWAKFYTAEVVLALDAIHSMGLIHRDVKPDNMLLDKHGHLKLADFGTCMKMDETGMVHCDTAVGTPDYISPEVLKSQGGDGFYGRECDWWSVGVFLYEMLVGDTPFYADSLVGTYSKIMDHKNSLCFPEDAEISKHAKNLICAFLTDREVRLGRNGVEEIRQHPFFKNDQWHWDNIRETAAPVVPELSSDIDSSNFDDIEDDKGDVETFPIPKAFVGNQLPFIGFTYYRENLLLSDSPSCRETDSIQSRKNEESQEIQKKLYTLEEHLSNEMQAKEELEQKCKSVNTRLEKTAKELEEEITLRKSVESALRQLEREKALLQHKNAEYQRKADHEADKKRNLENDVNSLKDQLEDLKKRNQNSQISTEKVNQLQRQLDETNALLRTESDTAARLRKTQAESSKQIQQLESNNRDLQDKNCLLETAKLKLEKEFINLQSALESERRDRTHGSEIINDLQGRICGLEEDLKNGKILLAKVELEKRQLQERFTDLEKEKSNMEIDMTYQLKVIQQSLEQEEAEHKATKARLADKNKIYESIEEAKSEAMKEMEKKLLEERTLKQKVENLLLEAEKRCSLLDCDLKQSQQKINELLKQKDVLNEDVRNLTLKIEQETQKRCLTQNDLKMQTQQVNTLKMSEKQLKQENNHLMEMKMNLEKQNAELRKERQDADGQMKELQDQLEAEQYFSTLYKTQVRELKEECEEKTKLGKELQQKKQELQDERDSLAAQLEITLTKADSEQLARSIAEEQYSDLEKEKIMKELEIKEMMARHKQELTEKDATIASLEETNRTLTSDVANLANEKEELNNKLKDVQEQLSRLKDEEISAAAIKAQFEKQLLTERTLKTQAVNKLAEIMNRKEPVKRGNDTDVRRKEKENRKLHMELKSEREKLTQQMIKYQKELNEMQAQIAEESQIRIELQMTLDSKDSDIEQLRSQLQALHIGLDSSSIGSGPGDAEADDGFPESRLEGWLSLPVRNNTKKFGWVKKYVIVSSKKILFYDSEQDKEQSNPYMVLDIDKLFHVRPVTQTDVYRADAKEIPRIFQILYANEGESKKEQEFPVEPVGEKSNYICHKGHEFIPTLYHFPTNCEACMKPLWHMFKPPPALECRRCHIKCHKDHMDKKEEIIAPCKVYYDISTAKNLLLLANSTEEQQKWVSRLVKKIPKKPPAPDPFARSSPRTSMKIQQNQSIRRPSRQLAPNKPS
Sequence of UniProt Q9HBY8 (whole entry, looked up): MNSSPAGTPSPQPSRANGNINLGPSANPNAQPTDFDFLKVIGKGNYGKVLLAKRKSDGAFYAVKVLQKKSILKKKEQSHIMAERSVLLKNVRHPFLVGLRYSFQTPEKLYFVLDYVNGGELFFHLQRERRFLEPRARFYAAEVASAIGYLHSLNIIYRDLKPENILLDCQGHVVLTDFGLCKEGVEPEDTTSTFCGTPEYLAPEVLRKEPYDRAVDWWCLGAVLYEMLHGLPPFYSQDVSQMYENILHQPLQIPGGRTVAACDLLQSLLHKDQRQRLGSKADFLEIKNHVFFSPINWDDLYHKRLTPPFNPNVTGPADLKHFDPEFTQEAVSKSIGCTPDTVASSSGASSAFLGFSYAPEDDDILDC
Sequence of UniProt P57059 (whole entry, looked up): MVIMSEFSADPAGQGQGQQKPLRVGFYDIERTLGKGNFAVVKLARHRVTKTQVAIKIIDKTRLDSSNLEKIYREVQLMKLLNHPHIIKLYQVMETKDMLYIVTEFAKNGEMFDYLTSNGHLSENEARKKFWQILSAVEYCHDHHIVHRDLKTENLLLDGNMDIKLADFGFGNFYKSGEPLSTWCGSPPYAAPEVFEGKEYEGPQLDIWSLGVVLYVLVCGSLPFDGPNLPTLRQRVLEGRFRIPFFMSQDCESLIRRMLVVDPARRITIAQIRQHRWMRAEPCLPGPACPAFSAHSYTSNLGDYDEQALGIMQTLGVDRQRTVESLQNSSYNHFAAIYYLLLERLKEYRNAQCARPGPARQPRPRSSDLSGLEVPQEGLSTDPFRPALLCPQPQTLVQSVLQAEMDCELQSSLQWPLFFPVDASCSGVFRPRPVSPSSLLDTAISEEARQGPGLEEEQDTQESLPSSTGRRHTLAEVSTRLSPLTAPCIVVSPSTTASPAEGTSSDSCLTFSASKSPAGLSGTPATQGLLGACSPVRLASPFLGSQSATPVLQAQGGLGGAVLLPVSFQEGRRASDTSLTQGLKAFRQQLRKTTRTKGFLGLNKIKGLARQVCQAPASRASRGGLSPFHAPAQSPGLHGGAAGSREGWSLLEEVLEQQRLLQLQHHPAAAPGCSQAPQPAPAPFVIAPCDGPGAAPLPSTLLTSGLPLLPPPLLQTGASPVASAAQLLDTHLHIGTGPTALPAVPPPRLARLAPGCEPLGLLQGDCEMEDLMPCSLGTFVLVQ
Sequence of UniProt Q9H422 (whole entry, looked up): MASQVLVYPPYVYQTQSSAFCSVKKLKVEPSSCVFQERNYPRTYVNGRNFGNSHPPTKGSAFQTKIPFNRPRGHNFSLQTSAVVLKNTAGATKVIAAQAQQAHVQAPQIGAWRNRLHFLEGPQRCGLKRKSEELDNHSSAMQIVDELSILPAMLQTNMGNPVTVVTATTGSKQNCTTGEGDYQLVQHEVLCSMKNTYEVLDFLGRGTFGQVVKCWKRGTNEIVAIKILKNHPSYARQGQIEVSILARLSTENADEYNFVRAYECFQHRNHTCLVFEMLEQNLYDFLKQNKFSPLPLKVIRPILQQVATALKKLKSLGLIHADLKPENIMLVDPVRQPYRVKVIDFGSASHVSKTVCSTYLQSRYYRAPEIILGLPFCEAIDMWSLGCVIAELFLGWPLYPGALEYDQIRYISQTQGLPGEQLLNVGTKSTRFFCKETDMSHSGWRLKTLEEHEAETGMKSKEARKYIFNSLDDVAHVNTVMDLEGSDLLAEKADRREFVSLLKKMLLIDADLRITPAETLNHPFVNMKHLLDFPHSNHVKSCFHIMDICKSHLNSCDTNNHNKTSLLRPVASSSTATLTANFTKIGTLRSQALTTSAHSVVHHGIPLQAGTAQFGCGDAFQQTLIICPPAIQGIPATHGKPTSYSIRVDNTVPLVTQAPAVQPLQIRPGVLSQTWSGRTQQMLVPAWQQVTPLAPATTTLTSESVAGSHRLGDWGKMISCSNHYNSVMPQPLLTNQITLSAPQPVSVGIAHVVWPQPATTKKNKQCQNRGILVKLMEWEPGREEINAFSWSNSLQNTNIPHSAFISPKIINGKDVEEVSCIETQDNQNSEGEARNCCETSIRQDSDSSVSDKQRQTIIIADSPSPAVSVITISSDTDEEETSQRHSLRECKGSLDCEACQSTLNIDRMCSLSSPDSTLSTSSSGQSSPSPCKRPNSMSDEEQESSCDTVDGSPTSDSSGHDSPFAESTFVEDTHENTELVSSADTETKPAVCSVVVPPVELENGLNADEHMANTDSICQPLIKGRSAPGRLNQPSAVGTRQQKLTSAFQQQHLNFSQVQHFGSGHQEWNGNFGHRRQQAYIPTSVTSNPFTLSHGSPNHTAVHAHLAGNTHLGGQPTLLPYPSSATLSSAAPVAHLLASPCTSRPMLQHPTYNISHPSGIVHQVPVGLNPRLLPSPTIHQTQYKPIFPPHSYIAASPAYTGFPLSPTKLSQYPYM
Sequence of UniProt P49674 (whole entry, looked up): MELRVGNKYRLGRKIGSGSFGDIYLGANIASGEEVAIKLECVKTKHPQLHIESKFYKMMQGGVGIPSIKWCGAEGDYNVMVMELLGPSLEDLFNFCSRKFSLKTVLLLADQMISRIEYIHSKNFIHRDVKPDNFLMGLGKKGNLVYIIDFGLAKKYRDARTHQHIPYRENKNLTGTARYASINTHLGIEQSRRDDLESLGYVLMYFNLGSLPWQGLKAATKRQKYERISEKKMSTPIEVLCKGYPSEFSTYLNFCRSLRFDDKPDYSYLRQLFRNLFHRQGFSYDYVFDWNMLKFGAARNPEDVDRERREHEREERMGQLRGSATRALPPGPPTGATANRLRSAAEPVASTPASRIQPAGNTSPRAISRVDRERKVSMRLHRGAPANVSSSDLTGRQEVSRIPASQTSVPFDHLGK
Sequence of UniProt Q8IU85 (whole entry, looked up): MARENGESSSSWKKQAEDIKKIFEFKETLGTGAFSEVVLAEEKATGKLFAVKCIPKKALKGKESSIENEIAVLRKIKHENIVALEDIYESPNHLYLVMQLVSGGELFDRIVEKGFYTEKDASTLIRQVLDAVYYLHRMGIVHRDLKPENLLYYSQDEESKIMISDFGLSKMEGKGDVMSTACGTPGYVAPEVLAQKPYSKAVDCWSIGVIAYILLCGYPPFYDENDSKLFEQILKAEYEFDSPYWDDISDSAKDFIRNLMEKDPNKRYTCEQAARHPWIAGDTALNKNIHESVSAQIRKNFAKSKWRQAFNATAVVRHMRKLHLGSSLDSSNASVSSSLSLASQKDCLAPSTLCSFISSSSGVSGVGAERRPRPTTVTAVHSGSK

Sample 1
SMILES: CCOc1ccc(Nc2c3c(nc4ccccc24)CCC3)cc1
Organism: Leishmania donovani
Strain: DD8
Medium: promastigotes
0.03 µM, 48 h — promastigote number: 4.7e+06 and 4.37e+06.
It gave 1550 and 1250 for promastigote number (66.66 µM, 48 h).
It gave 5.66e+06 and 5.65e+06 for promastigote number (3.33 µM, 72 h).
The promastigote number was 9.76e+06 and 9.86e+06 (0.66 µM, 72 h).
The promastigote number was 1570 and 1260 (33.33 µM, 72 h).
1.66 µM, 72 h — promastigote number: 9.85e+06 and 9.76e+06.
0.33 µM, 48 h — promastigote number: 4.33e+06 and 4.7e+06.
It gave 1570 and 1250 for promastigote number (16.66 µM, 48 h).

Sample 2
Compound: CC(C)CC(=O)N1CCc2nc(-c3ccc(Br)cc3)nc(N(C)Cc3ccccc3)c2C1
Concentration: 0.1 µM
The remaining binding was 100% (CIT (Homo sapiens, UniProt O14578); cell-free assay, competition with immobilised ligand).
It gave 86% for remaining binding (MYLK (Homo sapiens, UniProt Q15746); cell-free assay, competition with immobilised ligand).
For GAK (Homo sapiens, UniProt O14976); cell-free assay, competition with immobilised ligand: remaining binding read 100%.
For Non-receptor tyrosine-protein kinase TYK2, JH2 (TYK2, Homo sapiens, UniProt P29597); cell-free assay, competition with immobilised ligand: remaining binding read 100%.
BRAF (Homo sapiens, UniProt P15056, V600E); cell-free assay, competition with immobilised ligand — remaining binding: 100%.
It gave 83% for remaining binding (CSNK1D (Homo sapiens, UniProt P48730); cell-free assay, competition with immobilised ligand).
For PIK3CD (Homo sapiens, UniProt O00329); cell-free assay, competition with immobilised ligand: remaining binding read 82%.
Tyrosine-protein kinase JAK1, JH2 (JAK1, Homo sapiens, UniProt P23458); cell-free assay, competition with immobilised ligand — remaining binding: 71%.
It gave 94% for remaining binding (SGK2 (Homo sapiens, UniProt Q9HBY8); cell-free assay, competition with immobilised ligand).
For Tyrosine-protein kinase ABL1, phosphorylated (ABL1, Homo sapiens, UniProt P00519, F317I); binding: remaining binding read 100%.
For NEK4 (Homo sapiens, UniProt P51957); cell-free assay, competition with immobilised ligand: remaining binding read 100%.
The remaining binding was 79% (SRPK3 (Homo sapiens, UniProt Q9UPE1); cell-free assay, competition with immobilised ligand).
For STK25 (Homo sapiens, UniProt O00506); cell-free assay, competition with immobilised ligand: remaining binding read 100%.
The remaining binding was 89% (PRKACA (Homo sapiens, UniProt P17612); cell-free assay, competition with immobilised ligand).
The remaining binding was 91% (SIK1 (Homo sapiens, UniProt P57059); competition binding).
For ULK2 (Homo sapiens, UniProt Q8IYT8); cell-free assay, competition with immobilised ligand: remaining binding read 89%.
For STK32A (Homo sapiens, UniProt Q8WU08); cell-free assay, competition with immobilised ligand: remaining binding read 94%.
CSNK1E (Homo sapiens, UniProt P49674); cell-free assay, competition with immobilised ligand — remaining binding: 100%.
CAMK1G (Homo sapiens, UniProt Q96NX5); cell-free assay, competition with immobilised ligand — remaining binding: 100%.
It gave 100% for remaining binding (PNCK (Homo sapiens, UniProt Q6P2M8); cell-free assay, competition with immobilised ligand).
STK38L (Homo sapiens, UniProt Q9Y2H1); cell-free assay, competition with immobilised ligand — remaining binding: 95%.
CAMKK1 (Homo sapiens, UniProt Q8N5S9); cell-free assay, competition with immobilised ligand — remaining binding: 100%.
For MAPKAPK2 (Homo sapiens, UniProt P49137); cell-free assay, competition with immobilised ligand: remaining binding read 92%.
It gave 100% for remaining binding (MAP2K3 (Homo sapiens, UniProt P46734); cell-free assay, competition with immobilised ligand).
It gave 74% for remaining binding (ROCK2 (Homo sapiens, UniProt O75116); cell-free assay, competition with immobilised ligand).

Sample 3
Structure (SMILES): COc1cc2ncnc(N3CCN(C(=O)Nc4ccc(Oc5ccccc5)cc4)CC3)c2cc1OC
Observed: enzyme activity
Mode: inhibitor
Concentration: 0.5 µM
Reference: control
It gave 82.2% for remaining activity (GRK5 (Homo sapiens, UniProt P34947)).
The remaining activity was 104% (RET (Homo sapiens, UniProt P07949)).
The remaining activity was 100% (CAMK1G (Homo sapiens, UniProt Q96NX5)).
It gave 95.6% for remaining activity (DMPK (Homo sapiens, UniProt Q09013)).
SLK (Homo sapiens, UniProt Q9H2G2) — remaining activity: 97.9%.
The remaining activity was 103% (CDK7 (Homo sapiens, UniProt P50613)).
The remaining activity was 93.1% (Cyclin-dependent kinase 2, with cyclin A (CDK2, Homo sapiens, UniProt P24941)).
PRKD1 (Homo sapiens, UniProt Q15139) — remaining activity: 102%.
The remaining activity was 86.4% (BRSK1 (Homo sapiens, UniProt Q8TDC3)).
ROCK2 (Homo sapiens, UniProt O75116) — remaining activity: 125%.
It gave 87.4% for remaining activity (HIPK3 (Homo sapiens, UniProt Q9H422)).
For ROS1 (Homo sapiens, UniProt P08922): remaining activity read 89.7%.
The remaining activity was 99.1% (PKN2 (Homo sapiens, UniProt Q16513)).
NTRK3 (Homo sapiens, UniProt Q16288) — remaining activity: 89%.
For EGFR (Homo sapiens, UniProt P00533): remaining activity read 79.1%.
For Aurora kinase A (AURKA, Homo sapiens, UniProt O14965): remaining activity read 79.6%.
For MAPK10 (Homo sapiens, UniProt P53779): remaining activity read 98.2%.
MAP3K2 (Homo sapiens, UniProt Q9Y2U5) — remaining activity: 81.2%.
It gave 104% for remaining activity (CAMK1D (Homo sapiens, UniProt Q8IU85)).
It gave 79.8% for remaining activity (DYRK4 (Homo sapiens, UniProt Q9NR20)).
NEK9 (Homo sapiens, UniProt Q8TD19) — remaining activity: 103%.
It gave 95.1% for remaining activity (MAP3K8 (Homo sapiens, UniProt P41279)).
For PTK2B (Homo sapiens, UniProt Q14289): remaining activity read 91.2%.
It gave 61.9% for remaining activity (CSNK2A2 (Homo sapiens, UniProt P19784)).

Further values, each from its own experiment
With C=C(F)C(=O)N1CCN(c2nc(OC[C@@H]3CCCN3C)nc3c2CCN(c2cccc4cccc(Cl)c24)C3)C[C@@H]1CC#N the normalized BRET was 93.9% (GTPase HRas (HRAS, Homo sapiens, UniProt P01112); binding, competitor, NanoBRET; HEK293; 625 nM).

Repeated from above (sample 3):
NEK9 (Homo sapiens, UniProt Q8TD19) — remaining activity: 103%.
The remaining activity was 103% (CDK7 (Homo sapiens, UniProt P50613)).
The remaining activity was 93.1% (Cyclin-dependent kinase 2, with cyclin A (CDK2, Homo sapiens, UniProt P24941)).
ROCK2 (Homo sapiens, UniProt O75116) — remaining activity: 125%.
It gave 95.1% for remaining activity (MAP3K8 (Homo sapiens, UniProt P41279)).
SLK (Homo sapiens, UniProt Q9H2G2) — remaining activity: 97.9%.
It gave 79.8% for remaining activity (DYRK4 (Homo sapiens, UniProt Q9NR20)).
For EGFR (Homo sapiens, UniProt P00533): remaining activity read 79.1%.
The remaining activity was 100% (CAMK1G (Homo sapiens, UniProt Q96NX5)).
